Assay results pooled from the literature.
A part holds a random share of what one study measured. Positions count from the first letter of the parent shown.

Study 1 — technique: RNA Bind-n-Seq; form: RNA; sample: in vitro; tested at: not given; reference: input RNA pool; direction: higher = stronger binding; endpoint: bound/input enrichment
Target: RING finger protein unkempt homolog, zinc fingers 1-6, GST-SBP tag (UNK, Homo sapiens, UniProt Q9C0B0, residues 30-357)
Sequence of UniProt Q9C0B0 (30-357, looked up): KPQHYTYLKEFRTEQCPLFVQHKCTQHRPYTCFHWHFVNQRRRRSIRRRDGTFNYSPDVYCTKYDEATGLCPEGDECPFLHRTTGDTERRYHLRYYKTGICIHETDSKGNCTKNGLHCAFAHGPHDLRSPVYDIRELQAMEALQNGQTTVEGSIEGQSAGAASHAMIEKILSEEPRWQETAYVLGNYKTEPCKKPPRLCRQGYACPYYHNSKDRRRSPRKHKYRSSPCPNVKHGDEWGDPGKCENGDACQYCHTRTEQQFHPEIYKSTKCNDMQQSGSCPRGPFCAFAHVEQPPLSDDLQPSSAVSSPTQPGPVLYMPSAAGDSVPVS
Notes: RNA with constant flanks, human and mouse sites, ends assumed
Constant ends, left off below: GGGAGUUCUACAGUCCGACGAUC … CAACAGAGGAUUGAGCAUCA
GUUGGACUCAUUCAGGGAGCUGCUAUGGCUAUACUGGUUGCUUUGUAUGUAUCCGAUUUCUUCAAGGACACACAUUCUUACAAAGAGAGAAAGGAAGAGGAUCCACACACGACUCUCCAU: 0.26 ratio
UGCUCUUGAUCAGGGACAAGGGAGGUCAAGCUCUGACUAAUGCCAUGACCUGAUUAAGGGGUACAGCAGGGAGUUUUGUUGCUACAGCUCAUGAAUUAACCUGUCCCAACCUAAUCCCCC: 0.109 ratio
UAAGAAAUUGUUAUUCUGCUAAUAUUUACUUGUGAUUGUGUGACAAGCGUGUUUACAGAUGAUUUGGUUCCACUUCUUUACAGGGCAUAAACAAUGAUUAUCUAUUACUCUGAACUUUAU: 0.355 ratio
UCCACUCUAGGAUCUUUCCAAGGUGCUGCAUCGUCAGCAUCCCAUUUGCAUACGAGUGCCUCCCAACCAUACUCCUCUUUUGUGAAUCACUACAAUAGUCCAGCCAUGUACUCUGCCAGC: 0.483 ratio
CAUAUGCAAAAUCUGUUUCUACUACAAUGUUAUUUUUACUAAUGCCUUAUUGUUGCACUCUUUUUGAAAUAUCCUGCAGUGAAUAUAUGAAUCAAUUUGGGCUUAAAACUGAAAGCCAGU: 0.443 ratio
AGCUUUUGAUUCUCAUGCACCUCUUACAGUUGUUUCUUCUUCUGGACAGAUAAGGGUACAUUUUUGUGCUGAUAAAGUGAAUGCUGCAAGGGGAUUUAAUGCUACUUACCAAGUAGAUGG: 0.198 ratio
GAGGAGGAUAAACCCAGGCAGGUGGAGGUGCAUCAAGAGCCCGGGGCAGCGGUGCCCAGAGGCCAGGAGGCCCCUGAAGGCAAGGCCAGGGAGACGGUGGAGAAUCUGCCUCCCCUGCCU: 0.217 ratio
UUCCUCGCAAGCCUGGCUGCUGCAGGGAGUGGCACAGAUGCCCAGGUGGCCCUAGUGAAUGAAGUAAAAGCAGCCCUUGGACGGGCACUGGCUAUGGCUGAGAGUACAGAGAAACAUGCC: 0.714 ratio
AAGACUGAAUUAAGUGAAAUUGUACUUUAUUUUACAUAUAUAAUGUCAUGUACAACUUGGCUUAGAUAGUGUUUUUGGGGGGGAUUUUUGUUUUGGUGUUUAUUUUUACACAAGGAAAGU: 1.03 ratio
GGUGGCGGCCAGUGGCUGAACUCCAGUUGCGCUUGGUCAGAAUCUUCUCAAUUGAAUAAGACUAGAAGUAUCAGACGGCGAGAUUCCUGUCUAAAUUCCAAGACAAAGGUUAUGCCUACU: 0.152 ratio
AACAAUGAAUUUAAGACAUAUGGCAUUGAACCUUGAUAUUGAAUUCACAAAGAAUUUCCUAUAGAGCACAGAUUUUUGUUAACAUGAGUCAUAACUGUUAACAAUAUUUUAUUUCUCUUA: 0.251 ratio

Study 2 — technique: universal PBM; form: double-stranded DNA, one strand shown; sample: in vitro; tested at: not given; direction: higher = stronger binding; endpoint: E-score
Target: Sal-like protein 4, full length isoform B (SALL4, Homo sapiens, UniProt Q9UJQ4-2, residues 1-616)
Notes: 8-mer, flanks averaged, mean of replicates
Target sequence (chain): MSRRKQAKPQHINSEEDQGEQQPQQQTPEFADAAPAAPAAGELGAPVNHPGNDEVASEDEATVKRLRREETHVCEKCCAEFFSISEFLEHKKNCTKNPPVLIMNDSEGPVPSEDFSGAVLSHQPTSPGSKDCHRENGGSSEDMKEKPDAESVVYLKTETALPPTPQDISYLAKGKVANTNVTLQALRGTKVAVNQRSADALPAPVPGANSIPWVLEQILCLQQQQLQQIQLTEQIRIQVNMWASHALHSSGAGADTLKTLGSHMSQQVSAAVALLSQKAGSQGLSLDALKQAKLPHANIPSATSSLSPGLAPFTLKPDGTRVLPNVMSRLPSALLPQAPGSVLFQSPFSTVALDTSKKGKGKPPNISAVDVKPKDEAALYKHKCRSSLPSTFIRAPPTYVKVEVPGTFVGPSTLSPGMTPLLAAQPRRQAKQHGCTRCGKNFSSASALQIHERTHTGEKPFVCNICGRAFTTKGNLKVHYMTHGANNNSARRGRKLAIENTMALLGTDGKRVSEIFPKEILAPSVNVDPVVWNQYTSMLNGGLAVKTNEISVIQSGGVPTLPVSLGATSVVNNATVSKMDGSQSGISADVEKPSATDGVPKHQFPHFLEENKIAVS
AAAAAACG: 0.195
CACCTGAG: -0.0441
ACCTTAAC: 0.126
AGTAACCC: -0.0829
CTCAACCA: -0.0804
GCAGCTCC: -0.312
ATTGACCC: 0.104
ACTGCACG: -0.137
GGCGAGCA: -0.304
CCCAAGTC: -0.224
GTAAACAA: 0.292
CACTGCAG: -0.0935
AGGATCGA: -0.012
TGCTCGAA: -0.0209
AGCTCAAA: 0.101
AGGATTCC: -0.196
AAGAGGGG: -0.104
ACAGGCAG: -0.0626
TTAAAGAA: 0.27

Study 3 — technique: RNA Bind-n-Seq; form: RNA; sample: in vitro; tested at: 1 µM; notes: whole 134-nt RNA, ends assumed; added: 150 mM KCl; reference: input library; direction: higher = stronger binding; endpoint: log2 enrichment
Target: Ras GTPase-activating protein-binding protein 1, RRM domain (G3BP1, Homo sapiens, UniProt Q13283)
Sequence of UniProt Q13283 (whole entry, looked up): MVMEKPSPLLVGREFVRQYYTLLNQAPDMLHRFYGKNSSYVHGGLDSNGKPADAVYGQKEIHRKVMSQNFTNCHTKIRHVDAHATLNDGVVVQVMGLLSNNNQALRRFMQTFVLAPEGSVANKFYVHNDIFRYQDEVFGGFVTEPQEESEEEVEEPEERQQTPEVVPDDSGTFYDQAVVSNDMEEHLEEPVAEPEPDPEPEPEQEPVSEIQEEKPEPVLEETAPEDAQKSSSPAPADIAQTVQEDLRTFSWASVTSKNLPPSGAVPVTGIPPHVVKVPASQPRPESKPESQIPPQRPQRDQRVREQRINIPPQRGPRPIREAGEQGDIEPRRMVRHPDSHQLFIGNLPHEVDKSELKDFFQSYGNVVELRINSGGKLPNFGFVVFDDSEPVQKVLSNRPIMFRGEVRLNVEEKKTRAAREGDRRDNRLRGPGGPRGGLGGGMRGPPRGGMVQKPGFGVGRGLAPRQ
Constant ends, left off below: GGGAGUUCUACAGUCCGACGAUC … UGGAAUUCUCGGGUGUCAAGG
CUCAAGUCCUGUGCUACACAUCGUAUGUACCGAAUCGGUUGGGUUGGUUGGGGAAAGUAUUAUGUUACGCCGUUCGGAUCUGCACUUCCA: -0.152
CCUGUGCUACACAUCGUAUGUACCGAAUCGGGCCCCCCCGGGGCCCCCCCGGCCCCCCCGGAAAGUAUUAUGUUACGCCGUUCGGAUCUG: -0.532
GCAGGAAGUAAAAACAAAUGGAAAUGCUUCGGAUAGUGGCAGGGGUGGGGGUUGCUAAGGAAAGGGUGGCAUGGGAGUGGGUAAAGAGUU: 1.21
AAGUCCUGUGCUACACAUCGUAUGUACCGAAUCGGUUUGGUUUUUUUGGAAAAAGGAAAGUAUUAUGUUACGCCGUUCGGAUCUGCACUU: -0.209
AGUCCUGUGCUACACAUCGUAUGUACCGAAUCGGAAAAAAAGGAAAAAAAGGUUUGGAAAGUAUUAUGUUACGCCGUUCGGAUCUGCACU: -0.231
GUCCUGUGCUACACAUCGUAUGUACCGAAUCGGGGAGGGGUUUUUUUGGGGAAAGGGGAAAGUAUUAUGUUACGCCGUUCGGAUCUGCAC: 1.04
ACUUUGUCAGAUAUUGCUAGGGACCAGUGAGAUAGAUAAUCCAAAAAUAAUAAUUUGACUUUGGUUGAGUAUGUCAUUACCACAGUGUUA: -0.138
UGGGAGGUGGAUUUUGUUUUUUUUUUUAGCUCAUUUCCAGGGGUGGGAAUUUUUUUUUAAUAUGUGUCAUGAAUAAAGUUGUUUUUGAAA: 1.09
GCAGGAAGUAAAAACAAAUGGAAAUGCUUCGGAUAGUGGCAGGGGUGGGGGUUGCUAAGGAAAAAAUGGGAUGGGAGUGGGUAAAGAGUU: 1.56
CCCAUCAUGUUCAGAGGUGAGGUCCGUCUGAAUGUCGAAGAGAAGAAGACUCGAGCUGCCAGGGAAGGCGACCGACGAGAUAAUCGCCUU: -0.303
CUGUGCUACACAUCGUAUGUACCGAAUCGGGCCCCCCCGGCCCCCCCGGGGCCCCCCCGGGGAAAGUAUUAUGUUACGCCGUUCGGAUCU: -0.52
GUCCUGUGCUACACAUCGUAUGUACCGAAUCGGGGUUUUUUUGGGGUGGGGUUUGGGGAAAGUAUUAUGUUACGCCGUUCGGAUCUGCAC: 0.916
UGAGUAGAUCUAGAAAUGACAGUAUGACUUUGUUUCUAACAGCUCCAAAAUGGAUCAAAAUGUUUGUUUUGGAUGAAGCAGAUGAAAUGU: -0.454
CCUCAAGUCCUGUGCUACACAUCGUAUGUACCGAAUCGGGGUGGUGGGGUGGAAAGUAUUAUGUUACGCCGUUCGGAUCUGCACUUCCAG: -0.313

Study 4 — technique: protein binding microarray; form: double-stranded DNA, one strand shown; sample: in vitro; tested at: not given; reference: not given; direction: higher = stronger binding; endpoint: E-score
Target: Histone acetyltransferase KAT6A, both winged helices, GST fusion (KAT6A, Homo sapiens, UniProt Q92794, residues 1-181)
Notes: 8-mer, flanks averaged, mean of 2 arrays, mostly near background
Residues (chain): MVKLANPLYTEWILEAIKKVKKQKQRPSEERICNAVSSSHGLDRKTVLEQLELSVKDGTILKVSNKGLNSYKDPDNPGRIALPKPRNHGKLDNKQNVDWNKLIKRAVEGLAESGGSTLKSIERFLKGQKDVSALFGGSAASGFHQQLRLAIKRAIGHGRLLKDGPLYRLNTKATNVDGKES
ACAGGGAC: 0.0721
ATCATAGA: -0.16
AGTTCGTA: 0.0171
ATAGCGAC: 0.138
AGATGCCG: 0.209
ATATCCTC: -0.267
ACTGAAGA: -0.0315
ATTCTTTA: -0.114
AACTGAAT: -0.114
CGAGGTGA: 0.0174
AAACGATG: 0.0919
CATGGAGG: -0.12
GAGACGAC: -0.0446
ATTTGATA: -0.143
ATTAAATA: 0.0341
ACGGTCGG: 0.247
ATCCCCGA: 0.0572
GATACTGA: 0.162
CGAAAGTC: 0.0957
GATAAGAC: 0.0315

Study 5 — technique: protein-binding microarray; form: double-stranded DNA, one strand shown; sample: in vitro; tested at: not given; direction: higher = stronger binding; endpoint: E-score
Target: Myc proto-oncogene protein, bHLH-zipper, MAX partner unstated (MYC, Homo sapiens, UniProt P01106, residues 368-449)
Sequence of UniProt P01106 (368-449, looked up): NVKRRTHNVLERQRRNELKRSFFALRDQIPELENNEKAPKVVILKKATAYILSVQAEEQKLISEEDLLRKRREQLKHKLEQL
Notes: k-mer, scored over probes, only values ≥0.25
CCATGCTC: 0.358
CACCACCC: 0.297
CCGTGCAC: 0.273
CATGAGGC: 0.442
ATACACGA: 0.259
AACACATG: 0.462
CCTTGTGC: 0.282
ATGCCTCG: 0.292
ACAACATG: 0.346
CCGCGCCC: 0.258
CACTCACG: 0.251
CATGGTCA: 0.369
ACCCCATG: 0.394
AGAGCGTG: 0.367
CGTGGACC: 0.32
AACGTGGT: 0.439
GGAGGGGA: 0.266
CCGCCACA: 0.267

Study 6 — target: CCNB3, cyclin fold, Cln2 fusion (human); technique: yeast growth competition, sequencing; sample: yeast; notes: weak parent motif; reference: not given; direction: higher = stronger binding; endpoint: normalised enrichment score
Starting sequence: RBL1 docking peptide (human); GSAKRRLFGEDPP
GSAKRELFGEDPP [R6E]: 0.333
GYAKRRLFGEDPP [S2Y]: 0.663
PSAKRRLFGEDPP [G1P]: 0.486
GSIKRRLFGEDPP [A3I]: 0.366
GSAKRRLFGEDAP [P12A]: 0.774
GSAKRRLFGEDPV [P13V]: 1.21
GSAKRRLFGEDIP [P12I]: 0.405
GSAKIRLFGEDPP [R5I]: 0.0162
GSAKRRLFGEDPT [P13T]: 0.721
GSAKRRLEGEDPP [F8E]: -0.46
GSANRRLFGEDPP [K4N]: 0.269
GSAKRRLIGEDPP [F8I]: 0.139
GSAKQRLFGEDPP [R5Q]: 0.213
GSAKGRLFGEDPP [R5G]: 0.238
GSHKRRLFGEDPP [A3H]: 0.272
GSAKRRLFKEDPP [G9K]: 0.676

Some of these lines once more (study 6):
GSHKRRLFGEDPP [A3H]: 0.272
GSAKRRLFGEDPV [P13V]: 1.21
GSANRRLFGEDPP [K4N]: 0.269
GSAKRRLIGEDPP [F8I]: 0.139
GSAKRRLFGEDIP [P12I]: 0.405
GSIKRRLFGEDPP [A3I]: 0.366
PSAKRRLFGEDPP [G1P]: 0.486
GYAKRRLFGEDPP [S2Y]: 0.663
GSAKQRLFGEDPP [R5Q]: 0.213
GSAKRRLFGEDPT [P13T]: 0.721
GSAKIRLFGEDPP [R5I]: 0.0162
GSAKRRLFGEDAP [P12A]: 0.774
GSAKRRLFKEDPP [G9K]: 0.676
